{"data": "Experimental data of several laboratories", "note": "Each numbered part is a random draw from the data of one study; scales do not carry over between parts. Values joined by “and” are separate records of one study, mostly repeats; a detail may differ.", "UniProt Q9Y243, sequence (whole entry, looked up)": "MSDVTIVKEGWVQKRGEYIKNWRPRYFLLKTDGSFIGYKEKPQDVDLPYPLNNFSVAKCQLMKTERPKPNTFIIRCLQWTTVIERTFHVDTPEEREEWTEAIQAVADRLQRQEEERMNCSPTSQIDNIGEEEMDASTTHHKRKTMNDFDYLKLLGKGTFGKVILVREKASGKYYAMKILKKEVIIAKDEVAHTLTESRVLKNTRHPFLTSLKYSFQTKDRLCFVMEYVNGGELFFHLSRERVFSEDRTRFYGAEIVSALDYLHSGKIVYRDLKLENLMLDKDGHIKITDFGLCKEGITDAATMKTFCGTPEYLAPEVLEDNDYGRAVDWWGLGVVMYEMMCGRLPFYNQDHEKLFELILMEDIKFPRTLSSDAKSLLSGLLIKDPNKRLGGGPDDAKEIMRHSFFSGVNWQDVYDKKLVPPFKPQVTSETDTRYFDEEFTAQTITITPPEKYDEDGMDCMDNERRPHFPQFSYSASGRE", "UniProt Q9BXA7, sequence (whole entry, looked up)": "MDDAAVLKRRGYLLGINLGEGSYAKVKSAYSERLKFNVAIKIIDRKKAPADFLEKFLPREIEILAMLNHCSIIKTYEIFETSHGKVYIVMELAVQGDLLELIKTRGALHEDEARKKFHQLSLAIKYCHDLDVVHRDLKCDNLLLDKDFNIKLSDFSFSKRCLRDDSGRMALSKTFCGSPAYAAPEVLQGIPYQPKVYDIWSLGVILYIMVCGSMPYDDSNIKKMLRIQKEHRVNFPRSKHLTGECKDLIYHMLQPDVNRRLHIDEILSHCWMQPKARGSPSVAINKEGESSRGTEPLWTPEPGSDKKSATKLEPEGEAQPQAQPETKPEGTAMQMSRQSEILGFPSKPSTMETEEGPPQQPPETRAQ", "UniProt O00506, sequence (whole entry, looked up)": "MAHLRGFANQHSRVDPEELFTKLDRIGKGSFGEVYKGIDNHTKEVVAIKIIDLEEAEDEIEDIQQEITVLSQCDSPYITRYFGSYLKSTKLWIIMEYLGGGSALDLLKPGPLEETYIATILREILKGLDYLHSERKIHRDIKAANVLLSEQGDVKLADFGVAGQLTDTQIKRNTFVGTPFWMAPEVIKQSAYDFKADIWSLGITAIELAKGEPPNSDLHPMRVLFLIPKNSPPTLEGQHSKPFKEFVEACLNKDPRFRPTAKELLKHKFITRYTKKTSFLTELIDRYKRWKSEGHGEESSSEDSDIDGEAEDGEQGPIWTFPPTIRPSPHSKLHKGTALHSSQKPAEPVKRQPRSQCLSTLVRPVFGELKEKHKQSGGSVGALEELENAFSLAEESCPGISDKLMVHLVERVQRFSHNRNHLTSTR"}
{"data": "Sample 1", "Compound": "COc1ccc(-c2c(Nc3ccccn3)[nH]c3c(C4=CCCCC4)c(-c4ccccc4)nn3c2=O)cc1", "medium": "plasma", "route": "oral"}
{"system": "cancer patients", "setting": "400 mg, 24 h post-dose, single dose", "plasma concentration, geometric mean [ng/mL]": 633}
{"system": "cancer patients", "setting": "100 mg, 6 h post-dose, single dose", "plasma concentration, geometric mean [ng/mL]": 947}
{"system": "cancer patients", "setting": "400 mg, 1 h post-dose, single dose", "plasma concentration, geometric mean [ng/mL]": 293}
{"test": "LC-MS/MS", "system": "human", "setting": "200 mg twice daily, 4 h", "plasma concentration, geometric mean [ng/mL]": 11100}
{"system": "human patients", "setting": "150 mg once daily, 0 h, cycle 1", "plasma concentration, geometric mean [ng/mL]": 3030}
{"system": "cancer patients", "setting": "50 mg, 8 h post-dose, single dose", "plasma concentration, geometric mean [ng/mL]": 376}
{"system": "cancer patients", "setting": "50 mg, 3 h post-dose, single dose", "plasma concentration, geometric mean [ng/mL]": 435}
{"system": "cancer patients", "setting": "200 mg, 4 h post-dose, single dose", "plasma concentration, geometric mean [ng/mL]": 1210}
{"data": "Sample 2", "target": "DNA polymerase theta, ATPase domain (POLQ, Homo sapiens, UniProt O75417)", "read-out": "enzyme activity", "mode": "inhibitor", "tested at": "77 µM", "baseline": "untreated", "UniProt O75417, sequence (whole entry, unmodified, looked up)": "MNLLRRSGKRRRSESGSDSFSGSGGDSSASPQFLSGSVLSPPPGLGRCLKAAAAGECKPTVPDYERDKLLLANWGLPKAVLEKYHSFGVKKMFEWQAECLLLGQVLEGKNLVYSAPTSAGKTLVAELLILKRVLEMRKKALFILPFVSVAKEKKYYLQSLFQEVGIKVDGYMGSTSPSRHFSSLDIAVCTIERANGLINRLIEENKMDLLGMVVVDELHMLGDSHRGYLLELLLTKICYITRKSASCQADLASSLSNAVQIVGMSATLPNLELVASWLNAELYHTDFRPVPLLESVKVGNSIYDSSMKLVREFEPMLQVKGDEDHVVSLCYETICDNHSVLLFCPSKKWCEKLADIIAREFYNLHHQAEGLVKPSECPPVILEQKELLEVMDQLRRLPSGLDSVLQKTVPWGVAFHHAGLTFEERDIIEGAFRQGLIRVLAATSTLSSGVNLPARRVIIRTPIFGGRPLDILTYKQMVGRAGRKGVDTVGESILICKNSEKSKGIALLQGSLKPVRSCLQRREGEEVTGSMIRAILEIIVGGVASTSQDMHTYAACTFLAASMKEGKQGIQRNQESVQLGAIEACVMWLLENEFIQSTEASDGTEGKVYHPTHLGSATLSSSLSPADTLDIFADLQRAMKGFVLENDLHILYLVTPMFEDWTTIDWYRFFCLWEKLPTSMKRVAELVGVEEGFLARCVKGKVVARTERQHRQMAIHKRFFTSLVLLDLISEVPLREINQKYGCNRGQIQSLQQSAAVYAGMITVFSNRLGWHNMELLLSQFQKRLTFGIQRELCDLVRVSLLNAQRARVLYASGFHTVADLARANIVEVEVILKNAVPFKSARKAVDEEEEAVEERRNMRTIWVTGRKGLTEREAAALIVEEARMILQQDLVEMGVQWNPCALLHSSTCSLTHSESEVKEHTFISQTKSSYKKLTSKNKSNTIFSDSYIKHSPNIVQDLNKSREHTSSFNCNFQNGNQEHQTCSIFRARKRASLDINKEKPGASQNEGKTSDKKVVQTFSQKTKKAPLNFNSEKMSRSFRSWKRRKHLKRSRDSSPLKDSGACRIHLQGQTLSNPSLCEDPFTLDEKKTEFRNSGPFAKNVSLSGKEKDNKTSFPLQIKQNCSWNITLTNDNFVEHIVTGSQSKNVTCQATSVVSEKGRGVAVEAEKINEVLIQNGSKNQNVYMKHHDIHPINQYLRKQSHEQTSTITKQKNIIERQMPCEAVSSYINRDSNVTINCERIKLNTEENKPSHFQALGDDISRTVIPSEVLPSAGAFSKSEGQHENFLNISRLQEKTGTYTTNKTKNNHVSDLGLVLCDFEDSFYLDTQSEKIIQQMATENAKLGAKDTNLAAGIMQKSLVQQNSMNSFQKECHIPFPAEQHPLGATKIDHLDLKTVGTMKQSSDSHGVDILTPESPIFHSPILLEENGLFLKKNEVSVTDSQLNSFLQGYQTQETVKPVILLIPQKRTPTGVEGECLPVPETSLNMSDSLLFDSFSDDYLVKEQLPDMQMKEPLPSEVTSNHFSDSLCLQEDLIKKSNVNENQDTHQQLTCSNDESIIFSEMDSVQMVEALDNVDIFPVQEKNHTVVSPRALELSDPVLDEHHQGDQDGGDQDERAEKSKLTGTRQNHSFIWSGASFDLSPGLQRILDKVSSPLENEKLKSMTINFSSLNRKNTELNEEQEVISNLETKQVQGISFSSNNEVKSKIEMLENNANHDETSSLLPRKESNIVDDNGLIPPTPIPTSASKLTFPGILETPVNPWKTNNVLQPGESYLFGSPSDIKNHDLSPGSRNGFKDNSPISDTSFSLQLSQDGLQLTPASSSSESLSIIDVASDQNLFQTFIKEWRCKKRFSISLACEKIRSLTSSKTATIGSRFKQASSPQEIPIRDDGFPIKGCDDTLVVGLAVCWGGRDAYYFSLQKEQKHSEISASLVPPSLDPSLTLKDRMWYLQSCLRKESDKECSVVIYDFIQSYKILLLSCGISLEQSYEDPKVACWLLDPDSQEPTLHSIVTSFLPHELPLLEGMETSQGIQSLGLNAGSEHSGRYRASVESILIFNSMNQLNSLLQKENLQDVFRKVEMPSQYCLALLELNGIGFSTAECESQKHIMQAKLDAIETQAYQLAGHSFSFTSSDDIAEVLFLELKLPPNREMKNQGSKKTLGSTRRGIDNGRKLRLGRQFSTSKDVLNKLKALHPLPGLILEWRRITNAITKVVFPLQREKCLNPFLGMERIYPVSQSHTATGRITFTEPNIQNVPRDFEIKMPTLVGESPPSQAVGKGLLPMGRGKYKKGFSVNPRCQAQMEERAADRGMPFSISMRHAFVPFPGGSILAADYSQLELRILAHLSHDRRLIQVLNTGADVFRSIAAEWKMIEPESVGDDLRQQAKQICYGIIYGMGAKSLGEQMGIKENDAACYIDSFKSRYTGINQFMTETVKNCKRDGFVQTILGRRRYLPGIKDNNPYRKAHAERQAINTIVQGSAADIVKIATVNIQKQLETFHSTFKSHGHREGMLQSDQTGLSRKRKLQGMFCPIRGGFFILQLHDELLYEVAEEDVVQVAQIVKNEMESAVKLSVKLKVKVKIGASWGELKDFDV"}
{"SMILES": "NC(=O)CNCCC(c1ccccc1)c1ccccc1", "remaining activity": "106%"}
{"SMILES": "COc1ccc2c(c1)C(=O)N(CCc1ccc(S(=O)(=O)NC(=O)NC3CCCCC3)cc1)C(=O)C2(C)C", "remaining activity": "95.6%"}
{"SMILES": "COc1ccc(-c2cnc3c(-c4ccsc4)cnn3c2)cc1", "remaining activity": "89.5%"}
{"SMILES": "O=C1Cc2c([nH]c3ccc(Br)cc23)-c2ccccc2N1", "remaining activity": "100% and 105%"}
{"SMILES": "CN(C)CCc1c[nH]c2ccc(C[C@H]3COC(=O)N3)cc12", "remaining activity": "103%"}
{"SMILES": "CCN1C(=O)NC(c2ccccc2)C1=O (stereo not shown)", "remaining activity": "104%"}
{"SMILES": "CCCCC(=O)O[C@H]1CC[C@H]2[C@@H]3CCc4cc(O)ccc4[C@H]3CC[C@]12C", "remaining activity": "99.3%"}
{"data": "Sample 3", "Structure (SMILES)": "CC(=O)Nc1c(C(C)=O)c(=O)n(C)c2nc(-c3ccc(Cl)cc3Cl)c(-c3ccc(Cl)cc3)cc12", "read-out": "cell-free assay", "method": "competition with immobilised ligand", "tested at": "1 µM"}
{"target": "MAPK12 (Homo sapiens, UniProt P53778)", "remaining binding [%]": 100}
{"target": "STK25 (Homo sapiens, UniProt O00506)", "remaining binding [%]": 100}
{"target": "TSSK3 (Homo sapiens, UniProt Q96PN8)", "remaining binding [%]": 100}
{"target": "AKT3 (Homo sapiens, UniProt Q9Y243)", "remaining binding [%]": 100}
{"target": "TSSK1B (Homo sapiens, UniProt Q9BXA7)", "remaining binding [%]": 100}
{"target": "MAP3K10 (Homo sapiens, UniProt Q02779)", "remaining binding [%]": 100}
{"target": "PRKAA2 (Homo sapiens, UniProt P54646)", "remaining binding [%]": 100}
{"data": "Sample 4", "Structure (SMILES)": "O=C1NC(=O)C(c2cn(-c3ccccc3)nc2-c2ccc(F)cc2)N1 (stereo not shown)", "mode": "inhibitor", "tested at": "5 µM"}
{"target": "CSNK1D (Homo sapiens, UniProt P48730)", "test": "kinase–CDC37 interaction", "setting": "kinome plate 2@F04", "how to read": "baseline: vehicle", "log2 fold change": -0.106}
{"target": "Interleukin-1 receptor-associated kinase 3, with CDC37 (IRAK3, Homo sapiens, UniProt Q9Y616)", "test": "cell-based kinome screen", "system": "human cells", "how to read": "baseline: vehicle", "log2 fold change": -0.052}
{"target": "BLK (Homo sapiens, UniProt P51451)", "test": "cell-based kinome profiling", "system": "human cells", "how to read": "baseline: vehicle control", "log2 fold change": -0.433}
{"target": "CLK2 (Homo sapiens, UniProt P49760)", "test": "kinase-CDC37 interaction", "system": "human cells", "how to read": "baseline: vehicle", "log2 fold change": -0.062}
{"target": "ACVR1 (Homo sapiens, UniProt Q04771)", "test": "kinase–CDC37 interaction", "setting": "kinome plate 4@F04", "how to read": "baseline: vehicle", "log2 fold change": -0.402}
{"data": "Sample 5", "target": "Serine/threonine-protein kinase Nek1 (NEK1, Homo sapiens, UniProt Q96PY6)", "read-out": "enzyme activity", "mode": "inhibitor", "tested at": "0.5 µM", "baseline": "control", "UniProt Q96PY6, sequence (whole entry, looked up)": "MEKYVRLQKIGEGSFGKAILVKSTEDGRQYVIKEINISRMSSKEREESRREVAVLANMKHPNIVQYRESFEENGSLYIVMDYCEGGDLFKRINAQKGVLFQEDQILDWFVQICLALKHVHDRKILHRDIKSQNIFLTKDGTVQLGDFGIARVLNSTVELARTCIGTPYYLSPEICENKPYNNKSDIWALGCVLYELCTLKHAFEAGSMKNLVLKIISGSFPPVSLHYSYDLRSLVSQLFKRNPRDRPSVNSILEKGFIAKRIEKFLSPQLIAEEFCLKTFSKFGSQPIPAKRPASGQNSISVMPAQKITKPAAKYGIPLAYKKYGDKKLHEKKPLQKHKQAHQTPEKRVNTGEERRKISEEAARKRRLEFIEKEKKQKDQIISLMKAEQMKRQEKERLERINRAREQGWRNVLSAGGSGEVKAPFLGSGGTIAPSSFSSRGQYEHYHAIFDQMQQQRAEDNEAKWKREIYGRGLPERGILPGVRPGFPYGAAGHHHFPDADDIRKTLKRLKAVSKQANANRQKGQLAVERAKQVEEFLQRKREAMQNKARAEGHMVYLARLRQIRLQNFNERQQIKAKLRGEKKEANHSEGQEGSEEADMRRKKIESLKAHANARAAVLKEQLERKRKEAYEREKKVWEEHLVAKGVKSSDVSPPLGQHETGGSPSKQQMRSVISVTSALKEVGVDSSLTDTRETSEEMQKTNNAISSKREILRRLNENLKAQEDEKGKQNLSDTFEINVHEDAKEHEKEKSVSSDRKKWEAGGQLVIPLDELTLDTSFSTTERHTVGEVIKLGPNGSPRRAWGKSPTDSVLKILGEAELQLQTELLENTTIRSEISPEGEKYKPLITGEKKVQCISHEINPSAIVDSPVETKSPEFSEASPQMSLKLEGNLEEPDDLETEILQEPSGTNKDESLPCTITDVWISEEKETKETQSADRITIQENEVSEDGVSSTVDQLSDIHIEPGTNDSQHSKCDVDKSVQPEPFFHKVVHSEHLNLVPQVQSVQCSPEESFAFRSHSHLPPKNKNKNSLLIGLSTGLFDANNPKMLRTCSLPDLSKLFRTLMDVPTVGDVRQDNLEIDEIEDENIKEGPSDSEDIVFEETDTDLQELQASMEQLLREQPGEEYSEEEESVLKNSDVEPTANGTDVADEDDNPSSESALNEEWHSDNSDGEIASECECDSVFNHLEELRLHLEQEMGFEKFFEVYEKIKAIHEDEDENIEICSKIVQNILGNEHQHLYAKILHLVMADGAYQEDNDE"}
{"Compound": "N#CC(C#N)=C(N)/C(C#N)=C/c1ccc(O)cc1", "remaining activity": "95.7%"}
{"Compound": "COc1ccc(CNC(=O)Nc2ncc([N+](=O)[O-])s2)cc1", "remaining activity": "94.3%"}
{"Compound": "Cc1cccc(-c2[nH]c(C(C)(C)C)nc2-c2ccc3c(c2)OCO3)n1", "remaining activity": "78.9%"}
{"Compound": "CCOC(=O)c1c(C)[nH]c(/C=C2\\C(=O)Nc3ccccc32)c1C", "remaining activity": "92.5%"}
{"Compound": "CC(C)[C@H](CO)Nc1nc(Nc2cc(N)cc(Cl)c2)c2ncn(C(C)C)c2n1", "remaining activity": "81.5%"}
{"Compound": "O=C1NC(=O)C(c2cn(CCCn3ccnc3)c3ccccc23)=C1Nc1ccccc1", "remaining activity": "114%"}
{"Compound": "Cc1ccc(NC(=O)c2ccc(CN3CCN(C)CC3)cc2)cc1Nc1nc(-c2cccnc2)cs1", "remaining activity": "116%"}
{"Compound": "O=C(O)c1ccc2c3c1cccc3c(=O)n1c3ccccc3nc21", "remaining activity": "87.8%"}
{"Compound": "O=C(CCCc1ccc(-c2ccccc2F)cc1)Nc1ccc(O)cc1", "remaining activity": "100%"}
{"Compound": "COc1cc2ncnc(Nc3ccc(Oc4ccccc4)cc3)c2cc1OC", "remaining activity": "101%"}
{"Compound": "CO[C@H]1C[C@@H]2CC[C@@H](C)[C@@](O)(O2)C(=O)C(=O)N2CCCC[C@H]2C(=O)O[C@H]([C@H](C)C[C@@H]2CC[C@@H](O)[C@H](OC)C2)CC(=O)[C@H](C)/C=C(\\C)[C@@H](O)[C@@H](OC)C(=O)[C@H](C)C[C@H](C)/C=C/C=C/C=C/1C", "remaining activity": "104%"}
{"Compound": "C#Cc1cccc(Nc2ncnc3cc(OCCOC)c(OCCOC)cc23)c1", "remaining activity": "73.8%"}
{"Compound": "Cn1c2ccccc2c2c3c(c4c5ccccc5n(CCC#N)c4c21)CNC3=O", "remaining activity": "62.9%"}
{"Compound": "Oc1ccc(-c2nc(-c3ccncc3)c(-c3ccc(F)cc3)[nH]2)cc1", "remaining activity": "98.9%"}
{"Compound": "O=S(=O)(c1cccc2cnccc12)N1CCCNCC1", "remaining activity": "90.3%"}
{"Compound": "OCC(O)CCON=C1C(c2c(O)[nH]c3ccccc23)=Nc2ccccc21 (stereo not shown)", "remaining activity": "92.9%"}
{"Compound": "Nc1[nH]nc2nc3ccccc3nc12", "remaining activity": "91.7%"}
{"Compound": "Cn1sc(=O)n(Cc2ccccc2)c1=O", "remaining activity": "102%"}
{"Compound": "COc1cc2nccc(Oc3ccc(NC(=S)NC(=O)c4ccccc4C)cc3)c2cc1OC", "remaining activity": "96.7%"}
{"Compound": "COc1ccc(OC)c2c(=S)c3ccccc3[nH]c12", "remaining activity": "102%"}
{"Compound": "COc1ccc(C(=O)Nc2sc3c(c2C(N)=O)CCCC3)cc1OC", "remaining activity": "89.8%"}
{"Compound": "CNC(=O)c1cc(Oc2ccc(NC(=O)Nc3ccc(Cl)c(C(F)(F)F)c3)cc2)ccn1", "remaining activity": "88.8%"}
{"note": "For quick reference, copied from above (sample 5):"}
{"Compound": "O=C(O)c1ccc2c3c1cccc3c(=O)n1c3ccccc3nc21", "remaining activity": "87.8%"}
{"Compound": "O=C(CCCc1ccc(-c2ccccc2F)cc1)Nc1ccc(O)cc1", "remaining activity": "100%"}
{"Compound": "COc1cc2ncnc(Nc3ccc(Oc4ccccc4)cc3)c2cc1OC", "remaining activity": "101%"}
{"Compound": "CO[C@H]1C[C@@H]2CC[C@@H](C)[C@@](O)(O2)C(=O)C(=O)N2CCCC[C@H]2C(=O)O[C@H]([C@H](C)C[C@@H]2CC[C@@H](O)[C@H](OC)C2)CC(=O)[C@H](C)/C=C(\\C)[C@@H](O)[C@@H](OC)C(=O)[C@H](C)C[C@H](C)/C=C/C=C/C=C/1C", "remaining activity": "104%"}
{"Compound": "C#Cc1cccc(Nc2ncnc3cc(OCCOC)c(OCCOC)cc23)c1", "remaining activity": "73.8%"}
{"Compound": "Cn1c2ccccc2c2c3c(c4c5ccccc5n(CCC#N)c4c21)CNC3=O", "remaining activity": "62.9%"}
